Experimental data from different studies.
Each line is one published result; not all experiments were run side by side. Several values in a cell are separate wells, animals, samples, runs or records. ± marks the error that the study gave.
UniProt Q9UBS0, sequence (whole entry, looked up): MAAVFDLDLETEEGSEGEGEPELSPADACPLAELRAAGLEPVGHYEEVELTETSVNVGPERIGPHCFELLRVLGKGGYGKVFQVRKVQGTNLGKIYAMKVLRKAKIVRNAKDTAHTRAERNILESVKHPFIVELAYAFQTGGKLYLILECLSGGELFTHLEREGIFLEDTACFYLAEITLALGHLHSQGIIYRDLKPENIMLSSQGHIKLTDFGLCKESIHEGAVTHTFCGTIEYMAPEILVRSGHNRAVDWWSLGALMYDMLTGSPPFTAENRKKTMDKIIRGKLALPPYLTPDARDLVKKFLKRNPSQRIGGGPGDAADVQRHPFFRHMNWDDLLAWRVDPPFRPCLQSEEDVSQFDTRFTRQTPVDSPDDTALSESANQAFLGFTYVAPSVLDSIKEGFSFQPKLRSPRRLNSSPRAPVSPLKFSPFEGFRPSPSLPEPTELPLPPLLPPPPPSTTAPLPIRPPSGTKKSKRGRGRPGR
UniProt P54762, sequence (whole entry, looked up): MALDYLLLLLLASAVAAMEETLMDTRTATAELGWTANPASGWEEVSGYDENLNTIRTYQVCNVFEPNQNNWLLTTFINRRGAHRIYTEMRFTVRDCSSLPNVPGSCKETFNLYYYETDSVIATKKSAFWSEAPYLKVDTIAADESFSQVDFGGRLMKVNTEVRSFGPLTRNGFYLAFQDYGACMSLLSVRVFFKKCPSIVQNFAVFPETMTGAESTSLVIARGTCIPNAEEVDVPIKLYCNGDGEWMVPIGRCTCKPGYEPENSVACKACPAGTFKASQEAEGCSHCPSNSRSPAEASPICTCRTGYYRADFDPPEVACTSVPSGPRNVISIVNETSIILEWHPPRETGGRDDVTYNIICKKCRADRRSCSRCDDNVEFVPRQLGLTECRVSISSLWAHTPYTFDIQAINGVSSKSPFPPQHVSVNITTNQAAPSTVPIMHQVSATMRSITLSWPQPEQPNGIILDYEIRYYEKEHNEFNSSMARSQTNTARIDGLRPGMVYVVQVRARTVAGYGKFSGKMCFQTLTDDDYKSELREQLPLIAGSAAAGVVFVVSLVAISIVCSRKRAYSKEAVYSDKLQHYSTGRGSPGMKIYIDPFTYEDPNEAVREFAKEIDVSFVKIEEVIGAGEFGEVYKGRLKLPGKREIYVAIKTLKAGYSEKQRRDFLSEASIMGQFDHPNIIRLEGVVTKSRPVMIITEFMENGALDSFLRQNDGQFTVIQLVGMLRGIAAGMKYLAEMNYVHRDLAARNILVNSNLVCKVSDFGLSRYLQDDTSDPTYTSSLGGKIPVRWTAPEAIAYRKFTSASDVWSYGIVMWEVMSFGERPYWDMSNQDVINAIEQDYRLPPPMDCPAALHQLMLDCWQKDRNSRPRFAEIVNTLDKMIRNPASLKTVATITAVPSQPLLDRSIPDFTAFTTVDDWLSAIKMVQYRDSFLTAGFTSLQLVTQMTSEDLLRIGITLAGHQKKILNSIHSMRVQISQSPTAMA

SMILES | tested on | assay | system | setting | scale | quantity | value
Cc1cc(C(=O)Nc2nc3cccc(C)c3n2[C@H]2CCCCN(C(=O)/C=C/CN(C)C)C2)ccn1 | Trypanosoma brucei | cell growth, Alamar Blue | 2T1 overexpressing Tb927.10.2040 |  | relative to: parental 2T1 | EC50 fold shift | 0.57 fold and 0.53 fold
CC[C@H](C)[C@H](NC(=O)[C@H](CO)NC(=O)[C@H](Cc1ccc(O)cc1)NC(=O)[C@H](Cc1ccc(O)cc1)NC(=O)[C@H](CC(N)=O)NC(=O)CNC(=O)[C@H](CO)NC(=O)[C@H](Cc1ccc(O)cc1)NC(=O)[C@H](CO)NC(=O)[C@H](CO)NC(=O)[C@H](CC(N)=O)NC(=O)COCCOCCNC(=O)CN1CCN(CC(=O)O)CCN(CC(=O)O)CCN(CC(=O)O)CC1)C(=O)N[C@@H](CC(C)C)C(N)=O [copper-64 labelled] |  | dynamic PET | KPC mouse Ptf1a-CreER tdTomato, pancreas | intravenous, dose not given, 1.9 min, 84 d after tamoxifen |  | tissue uptake | 15.2 %ID/mL
O=C(O)c1ccc(-c2nc(-c3ccccc3Cl)c3sccn23)cc1 | K562 | megakaryocyte differentiation, flow cytometry |  | 0.01 mM, 72 h |  | CD61-positive cells | 0.5% and 8.9%
COc1ccccc1-c1ccncc1C(=O)Nc1nnc(OCc2ccc(Cl)cc2)s1 | HCT-116 BRCA2 wild-type |  |  | 0.5 µM | relative to: untreated | colony survival | 98%
O=C1NC2(CC2)COc2ncc(F)cc2[C@H]2COCCN2c2ccn3ncc1c3n2 |  |  | Sprague-Dawley rat, female, serum | oral, 2.5 mg/kg/day, end of treatment, 4-week subacute toxicity |  | serum sodium | 145 ± 2 mmol/L
CN(C)[C@H]1C[C@@]23CC[C@@]4(O2)C(=CC[C@]2(C)[C@@H](c5ccc6ccncc6c5)CC[C@H]24)C=C3[C@@H](O)[C@@H]1O | RPS6KB2 (Homo sapiens, UniProt Q9UBS0) | ATP probe labelling, inhibitor, KiNativ profiling |  | 0.1 µM |  | inhibition | -9.5%
COc1ccccc1-c1n[nH]c2nc(NC3CCN(C(=O)Cc4ccc(F)cc4F)CC3)ncc12 |  | bead binding, competition bead pull-down, item: LINJ.29.0790 | Leishmania donovani axenic amastigote extract | 10 µM | relative to: vehicle | relative abundance | 0.94
CC(C)C[C@H](NC(=O)[C@H](CC(=O)O)NC(=O)[C@@H](NC(=O)[C@H](CCC(=O)O)NC(=O)[C@H](CCCCN)NC(=O)[C@H](Cc1ccc(O)cc1)NC(=O)[C@H](CCCCN)NC(=O)[C@H](Cc1c[nH]cn1)NC(=O)CNC(=O)CN)[C@@H](C)O)C(N)=O | HCV IRES RNA | MALDI-TOF mass spectrometry, item: 5'-phosphate products | hepatitis C virus |  |  | initial cleavage rate | 6.1 ± 1.4 %/min
CC(C)(C)C(=O)OCOP(=O)(OCOC(=O)C(C)(C)C)C1CCCN(O)C1=O (stereo not drawn) | NCI/ADR-RES |  |  |  |  | GI50 | 0.434 µM
CS(C)(=O)=Nc1ccc(-c2ccc(-c3nc4cc(O[C@@H]5CO[C@H]6[C@@H]5OC[C@H]6O)[nH]c4cc3F)cc2)cc1 | EPHB1 (Homo sapiens, UniProt P54762) | enzyme activity, inhibitor |  | 10 µM |  | inhibition | 3%
COc1ccccc1-c1n[nH]c2nc(N[C@H]3CC[C@H](NS(=O)(=O)CC(C)C)CC3)ncc12 |  | bead binding, competition bead pull-down, item: LINJ.33.0600 | Leishmania donovani extract | 10 µM | relative to: vehicle | relative abundance | 1.39
Cc1cc(Oc2nc(N3CC[C@@H](c4ccncc4)C3)ncc2F)[nH]n1 | kidney cancer cell lines | cell proliferation |  | average over lines |  | IC50 | 46.8 µM

A few entries again:
SMILES | tested on | assay | system | setting | scale | quantity | value
CS(C)(=O)=Nc1ccc(-c2ccc(-c3nc4cc(O[C@@H]5CO[C@H]6[C@@H]5OC[C@H]6O)[nH]c4cc3F)cc2)cc1 | EPHB1 (Homo sapiens, UniProt P54762) | enzyme activity, inhibitor |  | 10 µM |  | inhibition | 3%
